Published values collected from several papers.
Protocols differ between the studies behind these lines. ± gives the spread as reported. Values after ≈ are worked out from the molar mass of the structure shown.

| Structure (SMILES) | target | test | test system | setting | scale | measurement | value |
| --- | --- | --- | --- | --- | --- | --- | --- |
| O=C(NCCCCc1ccccc1)n1c(=O)oc2cc(-c3ccc(F)cc3)ccc21 | acid ceramidase | enzyme activity and sphingolipid levels | SW-403 and RAW264.7 | 20 µM |  | duration of effect | 6 h |
| COc1ccc2c(c1)c1c(n2CO)CN2CCc3cc(OCc4cccc(F)c4)c(OC)cc3C2C1 (centres unmarked) | PCSK9 human | Western blot | HepG2 | 5 µM, 24 h, unit not given | baseline: vehicle | PCSK9 protein level | 0.48 ± 0.02 |
| CC(C)CCC[C@@H](C)[C@H]1CCC([C@@H]2CC[C@H]3C[C@H](O)CC[C@]3(C)[C@H]2O)[C@]1(C)CC(=O)O (some centres unmarked) | FXR, mouse | inhibitor | C57BL/6J male mice, antibiotic-treated, ileum and liver | oral gavage, dose not given, together with: taurocholic acid |  | FXR target gene mRNA level | inhibited |
| Cc1ccc(NC(=O)c2c(C)oc3ccc(O)c(CN4CCCCCC4)c23)cc1 | MYC Pu22 G-quadruplex DNA | circular dichroism |  | equimolar ligand |  | ΔTm | 2.1 °C |
| Nc1ncnc2c1ncn2[C@H]1C[C@H](O)[C@@H](COP(=O)(O)OP(=O)(O)[C@@H](F)P(=O)(O)O)O1 | truncated human DNA polymerase lambda | dNTP incorporation, single-turnover kinetics |  | B sequence, A·T pair | baseline: non-enzymatic LFER line | delta effective pKa4 | 0 pK units |
| C=CC(=O)N1[C@@H](c2ccc3c(c2)OCO3)c2[nH]c3ccccc3c2C[C@H]1C(=O)N1CCN2CCOC[C@H]2C1 | human cyclin E1 N112C:CDK2 complex | kinase activity |  | concentration not given, biochemical, together with: RB1 peptide or histone H1 substrate |  | inhibition | no inhibition |
| O=S([O-])c1ccccc1N=Cc1ccccc1[O-].[Cu+2].c1c[nH]cn1 | pUC19 plasmid DNA | hydrolytic cleavage to nicked form, gel electrophoresis |  | 100 µM, 2 h |  | DNA cleavage | 58% |
| Nc1ncnc2c1ncn2[C@H]1C[C@H](O)[C@@H](COP(=O)(O)OP(=O)(O)C(F)(Cl)P(=O)(O)O)O1 (some centres unmarked) | truncated human DNA polymerase lambda | dNTP incorporation, single-turnover kinetics |  | B sequence, A·T pair | baseline: non-enzymatic LFER line | delta effective pKa4 | 0.5 pK units |
| O=C(/C=C/c1ccccc1)OCCCC[P+](c1ccccc1)(c1ccccc1)c1ccccc1 | glutathione peroxidase, rat liver mitochondria |  |  | 10 µM, 15 and 30 min |  | GSH-Px activity | no effect |
| CC[C@H](C)[C@H](NC(=O)[C@@H]1CCCN1C(=O)[C@H](CCCNC(=N)N)NC(=O)[C@@H]1CCCN1C(=O)[C@@H]1CCCN1C(=O)[C@@H](NC(=O)[C@@H]1CCCN1C(=O)[C@H](CCCNC(=N)N)NC(=O)[C@@H]1CCCN1C(=O)[C@H](CC(C)C)NC(=O)[C@H](Cc1ccc(O)cc1)NC(=O)[C@H](CO)NC(=O)CNC(=O)[C@H](CCCCN)NC(=O)[C@H](CC(=O)O)NC(=O)[C@@H](N)C(C)C)[C@@H](C)O)C(=O)N[C@@H](Cc1ccc(O)cc1)C(=O)N[C@@H](CC(N)=O)C(=O)N[C@@H](CCCNC(=N)N)C(=O)N[C@@H](CC(N)=O)C(=O)NCC(=O)N1CCC[C@H]1C(=O)N[C@@H](CCCNC(=N)N)C(=O)N[C@@H](CC1CCCCC1)C(=O)N[C@@H](Cc1ccccc1)C(=O)N[C@@H](CCC(N)=O)C(=O)N[C@@H](CC(C)C)C(=O)N[C@@H](CC(=O)O)C(=O)O | 70S ribosome Escherichia coli | ITC |  | pH 7.5, 30 °C |  | Kd | 76 ± 20 nM |
| C[n+]1c(/C=C/c2ccc(N(c3ccccc3)c3ccccc3)cc2)cc(/C=C2\Sc3ccccc3N2CCCN2CCCC2)c2ccccc21 | c-MYC Pu27 G-quadruplex | binding |  |  | baseline: Pu27 over telomeric G4 | relative fluorescence | 4 to 5 fold |
| CCC/C(=C\C1=C(F)C(=O)c2ccccc2C1=O)C(=O)N(CC)CC | NF-κB | reporter gene, luciferase reporter | NF90-8 | 24 h, basal activity |  | EC50 | 11900 ± 810 nM |
| C=C1CN(S(=O)(=O)c2ccc(C)cc2)CCCN(Cc2ccccc2)CCCN(S(=O)(=O)c2ccc(C)cc2)C1 | SORT human | degrader, tGFP-P2A-BFP reporter flow cytometry, measured: tGFP reporter fusion | HEK-293T transfected | 10 µM, 24 h |  | protein level reduction | 50% |
| CCN(CC)CC(=O)Nc1cccc(-n2cc(-c3ccc4ccc(-c5cn(-c6cccc(NC(=O)CN(CC)CC)c6)nn5)cc4c3)nn2)c1 | HIF-2α | Western blot | nude mouse, tumour xenograft | ip, 15 mg/kg, 8 h | baseline: vehicle | HIF-2α protein level | 13.8% |
| CCCCC/C=C/C(=O)CCc1ccc(O)c(OC)c1 | mouse mAb 1-G12 | antibody binding, indirect competitive ELISA |  | together with: coating antigen 6-OVA |  | IC50 | 0.0862 µg/mL (≈ 0.312 µM) |
| CC[C@H](C)[C@H](NC(=O)[C@@H]1CCCN1C(=O)[C@H](CCCNC(=N)N)NC(=O)[C@@H]1CCCN1C(=O)[C@@H]1CCCN1C(=O)[C@@H](NC(=O)[C@@H]1CCCN1C(=O)[C@H](CCCNC(=N)N)NC(=O)[C@@H]1CCCN1C(=O)[C@H](CC(C)C)NC(=O)[C@H](Cc1ccc(O)cc1)NC(=O)[C@H](CO)NC(=O)CNC(=O)[C@H](CCCCN)NC(=O)[C@H](CC(=O)O)NC(=O)[C@@H](NC(=O)[C@H](CCCCN)NC(=O)c1ccc2c(c1)C(=O)OC21c2ccc(O)cc2Oc2cc(O)ccc21)C(C)C)[C@@H](C)O)C(=O)N[C@@H](Cc1ccc(O)cc1)C(=O)N[C@@H](CC(N)=O)C(=O)N[C@@H](CCCNC(=N)N)C(=O)N[C@@H](CC(N)=O)C(N)=O | 70S ribosome Escherichia coli | ITC |  | pH 7.5, 30 °C |  | Kd | > 10000 nM |
| COc1cc(CCC(C)=O)ccc1O | mouse mAb 1-G12 | antibody binding, indirect competitive ELISA |  | together with: coating antigen 3-OVA |  | IC50 | > 4 µg/mL |
| O=c1c(O)cccn1CCCN1CCN(CCCn2cccc(O)c2=O)CC1 | iron(III) |  |  | 25 °C |  | log K2 stability constant | 5.71 |
| CC[C@H](C)[C@H](NC(=O)[C@H](Cc1ccc(O)cc1)NC(=O)[C@@H](NC(=O)[C@H](CCCNC(=N)N)NC(=O)[C@@H](N)CC(=O)O)C(C)C)C(=O)N[C@@H](Cc1c[nH]cn1)C(=O)N1CCC[C@H]1C(=O)N[C@@H](Cc1ccccc1)C(=O)O | angiotensin II receptor type 1, human | aldosterone secretion, agonist, EIA | H295R, β-arrestin1 overexpressing |  |  | EC50 | 6 ± 4.5 nM |
| CCC/C(=C\C1=C(OC)C(=O)c2ccccc2C1=O)C(=O)NOC | NF-κB | reporter gene, luciferase reporter | NF90-8 | 24 h, basal activity |  | EC50 | 6100 ± 500 nM |
| CSCC[C@H](NC(=O)[C@H](Cc1ccc(O)cc1)NC(=O)[C@@H](NC(=O)[C@H](CCCNC(=N)N)NC(=O)[C@@H](N)CC(=O)O)C(C)C)C(=O)N[C@@H](Cc1c[nH]cn1)C(=O)N1CCC[C@H]1C(=O)N[C@@H](CC(C)C)C(=O)O | angiotensin II receptor type 1, human | aldosterone secretion, agonist, EIA | H295R, β-arrestin1 overexpressing |  |  | EC50 | 101 ± 11.3 nM |
| CCCCCCCCCCCCCCCCn1cc[n+](Cc2ccccc2)c1C | hGrx1-roGFP2 redox biosensor |  | Trypanosoma brucei brucei, bloodstream form | 2-fold EC50, 4 h |  | biosensor reduction | 145% |
| CSCc1ccccn1.F[P-](F)(F)(F)(F)F.F[P-](F)(F)(F)(F)F.[Ru+2].c1ccc(-c2ccccn2)nc1.c1ccc(-c2ccnc3c2ccc2c(-c4ccccc4)ccnc23)cc1 | pUC19 plasmid DNA | agarose gel electrophoresis |  | concentration not given, together with: green light 19 J/cm^2 |  | time to DNA binding | ≤ 1 h |
| Cc1cc(/C=C/c2ccc(O)c(O)c2)[nH]n1 | glutathione S-transferase | enzyme activity | MCF7 | 25 µM, 48 h |  | inhibition | 31% |
| COc1cc(C(C)C)c(Oc2cnc(N)nc2N)cc1I | chicken P2X3 wild type | ion current, inhibitor, patch clamp | HEK293 transfected | 10 µM, together with: ATP 10 µM |  | ATP-evoked current | no inhibition |
| C1=[N+]2CCC[N+]3=Cc4ccc5[n]4[Au-]23[n]2c1ccc2-c1nc2ccccc2nc1-5.F[P-](F)(F)(F)(F)F | DNA topoisomerase I |  | relaxed pHOT1 plasmid | 37 °C |  | DNA unwinding concentration | 5 µM |

A few entries again:
| Structure (SMILES) | target | test | test system | setting | scale | measurement | value |
| --- | --- | --- | --- | --- | --- | --- | --- |
| O=c1c(O)cccn1CCCN1CCN(CCCn2cccc(O)c2=O)CC1 | iron(III) |  |  | 25 °C |  | log K2 stability constant | 5.71 |
| CC[C@H](C)[C@H](NC(=O)[C@H](Cc1ccc(O)cc1)NC(=O)[C@@H](NC(=O)[C@H](CCCNC(=N)N)NC(=O)[C@@H](N)CC(=O)O)C(C)C)C(=O)N[C@@H](Cc1c[nH]cn1)C(=O)N1CCC[C@H]1C(=O)N[C@@H](Cc1ccccc1)C(=O)O | angiotensin II receptor type 1, human | aldosterone secretion, agonist, EIA | H295R, β-arrestin1 overexpressing |  |  | EC50 | 6 ± 4.5 nM |
| CCC/C(=C\C1=C(OC)C(=O)c2ccccc2C1=O)C(=O)NOC | NF-κB | reporter gene, luciferase reporter | NF90-8 | 24 h, basal activity |  | EC50 | 6100 ± 500 nM |
